Measurements of several laboratories.
Lines come from different studies, so protocols differ.

Compound | assay | system | conditions | measurement | result
CCCC[C@@H]1NC(=O)[C@H](Cc2ccc(O)cc2)NC(=O)[C@@H]2CCCN2C(=O)[C@H](CC(=O)O)NC(=O)[C@H](C)NC(=O)[C@H](Cc2ccccc2)NC(=O)[C@@H]2CSCCC(=O)N3CN(CN(C3)C(=O)CCSC[C@@H](C(=O)N[C@@H](C)C(N)=O)NC1=O)C(=O)CCSC[C@H](NC(=O)[C@H](C)NC(C)=O)C(=O)N[C@@H]([C@@H](C)CC)C(=O)N[C@@H](CCC(=O)O)C(=O)N[C@@H](CCC(=O)O)C(=O)N[C@H](CCCCNC(=O)CCc1cn(CCOCCOCCOCCN(CCOCCOCCOCCC(=O)N[C@H]3CSCCC(=O)N4CN5CN(C4)C(=O)CCSC[C@H](NC(=O)[C@@H](CC(=O)O)NC(=O)[C@H](Cc4cccc6ccccc46)NC(=O)[C@@H]4CCCN4C3=O)C(=O)N[C@@H](CCSC)C(=O)N[C@@H](CCCCNC(=N)N)C(=O)N[C@@H](CC(=O)O)C(=O)N[C@@H](Cc3c[nH]c4ccccc34)C(=O)N[C@@H](CO)C(=O)N[C@@H]([C@@H](C)O)C(=O)N3CCC[C@H]3C(=O)N3C[C@H](O)C[C@H]3C(=O)N[C@@H](Cc3c[nH]c4ccccc34)C(=O)N[C@H](C(N)=O)CSCCC5=O)CCOCCOCCOCCn3cc(CCC(=O)NCCCC[C@H]4NC(=O)[C@H](CCC(=O)O)NC(=O)[C@H](CCC(=O)O)NC(=O)[C@H]([C@@H](C)CC)NC(=O)[C@@H](NC(=O)[C@H](C)NC(C)=O)CSCCC(=O)N5CN6CN(C5)C(=O)CCSC[C@H](NC(=O)[C@H](Cc5ccc(O)cc5)NC(=O)[C@H](CCC(N)=O)NC4=O)C(=O)N[C@@H](Cc4ccccc4)C(=O)N[C@@H](C)C(=O)N[C@@H](CC(=O)O)C(=O)N4CCC[C@H]4C(=O)N[C@@H](Cc4ccc(O)cc4)C(=O)N[C@@H](CCCC)C(=O)N[C@H](C(=O)N[C@@H](C)C(N)=O)CSCCC6=O)nn3)nn1)C(=O)N[C@@H](CCC(N)=O)C(=O)N[C@@H](Cc1ccc(O)cc1)C(=O)N2 | – | Sprague-Dawley rat | – | unbound Vdss | 3 L/kg
C1=Cc2nc1cc1ccc([n-]1)c(-c1ccccc1)c1nc(cc3ccc([n-]3)c2-c2ccccc2)C=C1.CC(=O)[O-].[Mn+3] | LC-MS/MS | Sprague-Dawley rat, plasma | oral gavage, dose not given, 240 min | mean plasma concentration | 110 ng/mL
O=C(O)CCCOc1ccc(F)cc1-c1cc(-c2ccccc2C(F)(F)F)n(-c2ccccc2)n1 | – | Crl:CD(SD) rats, female, blood | iv, 25 µg/kg, 14 days | mean corpuscular volume | 54.4 fL
CC1(C)[C@H](C=C(Cl)Cl)[C@H]1C(=O)OCc1cccc(Oc2ccccc2)c1 | item: CYP2C8 | human, age 6 months, recombinant human CYP2C8 | 0.1 µM | enzyme contribution to clearance | 0.04%
C[C@]1(CO)Cc2ncn(-c3ccc(C#N)c(Cl)c3)c2C(=O)O1 | – | healthy humans | concentration not given, food-effect part total | drug-related Hyperhidrosis incidence | 8.3%
COc1ccnc(C(=O)N[C@H]2COC(=O)[C@H](Cc3ccccc3)[C@@H](OC(=O)C(C)C)[C@H](C)OC2=O)c1OCOC(=O)C(C)C | – | field soil, silty clay loam | actual, northern France | DT50 | 14.7 days
CO[C@H]1C[C@@H]2CC[C@@H](C)[C@@](O)(O2)C(=O)C(=O)N2CCCC[C@H]2C(=O)O[C@H]([C@H](C)C[C@@H]2CC[C@@H](OC(=O)NCCOCCOCCOCCOCCOCCOCCOCCOCCC(=O)N3CCc4cc(Cn5nc(-c6ccc7oc(N)nc7c6)c6c(N)ncnc65)ccc4C3)[C@H](OC)C2)C[C@@H](O)[C@H](C)/C=C(\C)[C@@H](O)[C@@H](OC)C(=O)[C@H](C)C[C@H](C)/C=C/C=C/C=C/1C | phase 1 dose escalation | advanced solid tumour patients | intravenous, 8 mg weekly, grade ≥3 | deaths due to TRAEs | 0%
CC(=O)c1c(C)c2cnc(Nc3ccc(C4CCN(CCS(C)(=O)=O)CC4)cn3)nc2n(C2CCCC2)c1=O | – | human, dose-escalation trial, plasma | oral, 150 mg twice daily, day 1, single dose | Cmax | 324 ng/mL
CC/C(=C(\c1ccccc1)c1ccc(OCCN(C)C)cc1)c1ccccc1 | – | CD-1 mouse, male, plasma | intraperitoneal, 3 mg/kg | half-life | 7.73 h
COc1cc2c(Oc3ccc4[nH]c(C)cc4c3F)ccnc2cc1OCC1(N)CC1 | – | paediatric recurrent refractory sarcoma | concentration not given, whole group | grade 1 or 2 sinus arrhythmia | 2.9%
CC[C@H](C)[C@H](NC(=O)[C@H](CC(N)=O)NC(=O)[C@H](CCC(=O)O)NC(=O)[C@H](C)NC(=O)[C@H](Cc1c[nH]cn1)NC(=O)[C@@H](NC(=O)[C@@H]1CCCN1C(=O)[C@H](CO)NC(=O)[C@@H]1CCCN1C(=O)[C@@H](NC(=O)[C@H](Cc1ccc(O)cc1)NC(=O)[C@@H](NC(=O)[C@H](CCCNC(=N)N)NC(=O)[C@H](CO)NC(=O)[C@@H](NC(=O)[C@H](Cc1c[nH]cn1)NC(C)=O)[C@@H](C)O)[C@@H](C)CC)[C@@H](C)CC)[C@@H](C)CC)C(N)=O | circular dichroism | water with 5% DMSO | 500 µM, 18 °C | random coil content | 98%
C[C@]1(O)C[C@@](N)(c2ccc(-c3nc4n(c3-c3ccccc3)COc3ccncc3-4)cc2)C1 | – | human, advanced or metastatic solid tumours | 28 mg intermittent, phase I dose escalation | patients with Rash TEAE | 66.7%
COc1ccc(C[C@@H]2NC(=O)[C@H]([C@@H](C)O)NC(=O)[C@@H]3[C@@H]4CCN3C(=O)[C@@H]3Cc5cn(c6ccc(F)cc56)CCCCCCN(Cc5ccc(cc5)CCNC(=O)[C@]5(C)CCCN5C2=O)C(=O)CCC(=O)N[C@@H](C)C(=O)N[C@H](CNC(=O)CCCCC[N+](C)(C)C)C(=O)N[C@@H](Cc2cccc(c2)CNC(=O)CO4)C(=O)N3)cc1 | item: Dyspepsia | humans | concentration not given, Study-003 | participants with adverse event | 3.2%
Cn1ncc(-c2nc(N[C@H]3CC[C@H](N)CC3)ncc2Cl)c1CC1CC1 | HPLC-MS/MS | patients, plasma | oral, 11 mg, day 1 | Cmax | 27.8 ng/mL

For quick reference, copied from above:
Compound | assay | system | conditions | measurement | result
COc1cc2c(Oc3ccc4[nH]c(C)cc4c3F)ccnc2cc1OCC1(N)CC1 | – | paediatric recurrent refractory sarcoma | concentration not given, whole group | grade 1 or 2 sinus arrhythmia | 2.9%
